# Results pooled from the literature.
# Each numbered part is a random draw from the data of one study; scales do not carry over between parts.

# Set 1 — method: protein-binding microarray; form: double-stranded DNA, one strand shown; matrix: in vitro; concentration: 250 nM; notes: 60-bp whole probe; with: salmon DNA 0.4 mg/ml; baseline: random background probes; reading: higher = stronger binding; shared flanks, not repeated: GCCTAGCAC … GTCTTGATTCGCTTGACGCTGCTG
# Target: Interferon regulatory factor 5, full length, phosphomimetic (IRF5, Homo sapiens, UniProt Q13568-2, residues 1-514, K96S/S451D/S453D/S456D/S462D)
Sequence,log fluorescence [z-score]
TTAGAACTGAGTTTCGATTGGTGCTAG,9.37
GGCGATTTCGGGACTGGAGACGTGCTA,1.84
TTTTGTTTTTCATTATTGTCGTGCTAG,4.84
TTAGGTTTCGGTATCGGTTAGTGCTAG,10.8
GACGGTATCGACACTGAGGACGTGCTA,1.7
TTATGACTGGGGTATCGGTTAGTGCTA,2.68

# Set 2 — method: universal PBM; form: double-stranded DNA, one strand shown; matrix: in vitro; concentration: not given; reading: higher = stronger binding
# Target: Sal-like protein 4, full length isoform B (SALL4, Homo sapiens, UniProt Q9UJQ4-2, residues 1-616)
# Notes: 8-mer, flanks averaged, mean of replicates
Sequence,E-score
CACAGCAG,-0.0443
GATGTTCC,-0.14
AGAATAGC,0.0337
ACCCCCGT,-0.332
ACGCTTAC,-0.0776
ATCGGCCG,-0.24
GCTGATCC,-0.355

# Set 3 — method: aptamer microarray, sandwich; form: DNA with 2'F-ANA; matrix: in vitro; concentration: 200 nM; with: Cy3 exosite-II aptamer, 400 nM; reading: higher = stronger binding; sequence: GGTTGGTGTGGTTGG
# Target: Prothrombin, mature alpha-thrombin (F2, Homo sapiens, UniProt P00734)
# Notes: whole 15-mer aptamer, many near background
Modification,mean fluorescence intensity
2'F-ANA at 8 10 11 15,158 a.u.
2'F-ANA at 4 5 6 9 10 14,42.7 a.u.
2'F-ANA at 1 3 4 6 9 10 11 14 15,56.7 a.u.
2'F-ANA at 4 5 6 9 10 11 13 15,47.4 a.u.
2'F-ANA at 2 5 8 12 13,120 a.u.
2'F-ANA at 1 2 3 4 7 9 10 12 13 14,53.4 a.u.

# Mixed results
Substance,target,assay,test system,setting,how to read,quantity,result
"PhoQ, residues 284 288 289 292 302 303 SASVAL","PhoP, residues 12 14 15 18 19 SYFRT (Escherichia coli, UniProt P23836)","Sort-seq, item: YFP reporter",E. coli,"PhoQ-PhoP variant library, with: 10 µM Mg2+","baseline: high Mg2+ state, higher = stronger signaling",fold induction,0.728

# Some of these lines once more (set 2):
Sequence,E-score
ATCGGCCG,-0.24
GCTGATCC,-0.355
